Measured values gathered from unrelated publications.
Lines come from different studies, so protocols differ. Values joined by “and” are separate records of one study, mostly repeats; a detail may differ. ± marks the error that the study gave.
Proteasome component C5/PSMB5 chymotrypsin-like site: Proteasome component C5/PSMB5, chymotrypsin-like site (Homo sapiens, UniProt P20618+P28074)
UniProt P20618, sequence (whole entry, looked up): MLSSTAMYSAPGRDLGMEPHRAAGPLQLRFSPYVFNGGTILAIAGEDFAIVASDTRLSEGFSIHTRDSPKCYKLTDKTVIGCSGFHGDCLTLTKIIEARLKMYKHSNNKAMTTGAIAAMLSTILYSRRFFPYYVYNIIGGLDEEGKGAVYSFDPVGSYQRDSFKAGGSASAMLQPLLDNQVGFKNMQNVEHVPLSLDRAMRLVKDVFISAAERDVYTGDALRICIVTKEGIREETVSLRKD
UniProt P28074, sequence (whole entry, looked up): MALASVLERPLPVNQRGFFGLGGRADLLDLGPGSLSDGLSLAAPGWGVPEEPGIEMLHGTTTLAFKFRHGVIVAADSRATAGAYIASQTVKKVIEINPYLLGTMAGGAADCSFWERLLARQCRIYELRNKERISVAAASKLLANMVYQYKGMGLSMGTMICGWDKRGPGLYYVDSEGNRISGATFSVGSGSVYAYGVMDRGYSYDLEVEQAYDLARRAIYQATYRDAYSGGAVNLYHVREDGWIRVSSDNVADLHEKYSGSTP
Genome polyprotein NS2B-NS3 protease: Genome polyprotein, NS2B-NS3 protease (ZIKV, UniProt A0A024B7W1)
UniProt A0A024B7W1, sequence (whole entry, looked up): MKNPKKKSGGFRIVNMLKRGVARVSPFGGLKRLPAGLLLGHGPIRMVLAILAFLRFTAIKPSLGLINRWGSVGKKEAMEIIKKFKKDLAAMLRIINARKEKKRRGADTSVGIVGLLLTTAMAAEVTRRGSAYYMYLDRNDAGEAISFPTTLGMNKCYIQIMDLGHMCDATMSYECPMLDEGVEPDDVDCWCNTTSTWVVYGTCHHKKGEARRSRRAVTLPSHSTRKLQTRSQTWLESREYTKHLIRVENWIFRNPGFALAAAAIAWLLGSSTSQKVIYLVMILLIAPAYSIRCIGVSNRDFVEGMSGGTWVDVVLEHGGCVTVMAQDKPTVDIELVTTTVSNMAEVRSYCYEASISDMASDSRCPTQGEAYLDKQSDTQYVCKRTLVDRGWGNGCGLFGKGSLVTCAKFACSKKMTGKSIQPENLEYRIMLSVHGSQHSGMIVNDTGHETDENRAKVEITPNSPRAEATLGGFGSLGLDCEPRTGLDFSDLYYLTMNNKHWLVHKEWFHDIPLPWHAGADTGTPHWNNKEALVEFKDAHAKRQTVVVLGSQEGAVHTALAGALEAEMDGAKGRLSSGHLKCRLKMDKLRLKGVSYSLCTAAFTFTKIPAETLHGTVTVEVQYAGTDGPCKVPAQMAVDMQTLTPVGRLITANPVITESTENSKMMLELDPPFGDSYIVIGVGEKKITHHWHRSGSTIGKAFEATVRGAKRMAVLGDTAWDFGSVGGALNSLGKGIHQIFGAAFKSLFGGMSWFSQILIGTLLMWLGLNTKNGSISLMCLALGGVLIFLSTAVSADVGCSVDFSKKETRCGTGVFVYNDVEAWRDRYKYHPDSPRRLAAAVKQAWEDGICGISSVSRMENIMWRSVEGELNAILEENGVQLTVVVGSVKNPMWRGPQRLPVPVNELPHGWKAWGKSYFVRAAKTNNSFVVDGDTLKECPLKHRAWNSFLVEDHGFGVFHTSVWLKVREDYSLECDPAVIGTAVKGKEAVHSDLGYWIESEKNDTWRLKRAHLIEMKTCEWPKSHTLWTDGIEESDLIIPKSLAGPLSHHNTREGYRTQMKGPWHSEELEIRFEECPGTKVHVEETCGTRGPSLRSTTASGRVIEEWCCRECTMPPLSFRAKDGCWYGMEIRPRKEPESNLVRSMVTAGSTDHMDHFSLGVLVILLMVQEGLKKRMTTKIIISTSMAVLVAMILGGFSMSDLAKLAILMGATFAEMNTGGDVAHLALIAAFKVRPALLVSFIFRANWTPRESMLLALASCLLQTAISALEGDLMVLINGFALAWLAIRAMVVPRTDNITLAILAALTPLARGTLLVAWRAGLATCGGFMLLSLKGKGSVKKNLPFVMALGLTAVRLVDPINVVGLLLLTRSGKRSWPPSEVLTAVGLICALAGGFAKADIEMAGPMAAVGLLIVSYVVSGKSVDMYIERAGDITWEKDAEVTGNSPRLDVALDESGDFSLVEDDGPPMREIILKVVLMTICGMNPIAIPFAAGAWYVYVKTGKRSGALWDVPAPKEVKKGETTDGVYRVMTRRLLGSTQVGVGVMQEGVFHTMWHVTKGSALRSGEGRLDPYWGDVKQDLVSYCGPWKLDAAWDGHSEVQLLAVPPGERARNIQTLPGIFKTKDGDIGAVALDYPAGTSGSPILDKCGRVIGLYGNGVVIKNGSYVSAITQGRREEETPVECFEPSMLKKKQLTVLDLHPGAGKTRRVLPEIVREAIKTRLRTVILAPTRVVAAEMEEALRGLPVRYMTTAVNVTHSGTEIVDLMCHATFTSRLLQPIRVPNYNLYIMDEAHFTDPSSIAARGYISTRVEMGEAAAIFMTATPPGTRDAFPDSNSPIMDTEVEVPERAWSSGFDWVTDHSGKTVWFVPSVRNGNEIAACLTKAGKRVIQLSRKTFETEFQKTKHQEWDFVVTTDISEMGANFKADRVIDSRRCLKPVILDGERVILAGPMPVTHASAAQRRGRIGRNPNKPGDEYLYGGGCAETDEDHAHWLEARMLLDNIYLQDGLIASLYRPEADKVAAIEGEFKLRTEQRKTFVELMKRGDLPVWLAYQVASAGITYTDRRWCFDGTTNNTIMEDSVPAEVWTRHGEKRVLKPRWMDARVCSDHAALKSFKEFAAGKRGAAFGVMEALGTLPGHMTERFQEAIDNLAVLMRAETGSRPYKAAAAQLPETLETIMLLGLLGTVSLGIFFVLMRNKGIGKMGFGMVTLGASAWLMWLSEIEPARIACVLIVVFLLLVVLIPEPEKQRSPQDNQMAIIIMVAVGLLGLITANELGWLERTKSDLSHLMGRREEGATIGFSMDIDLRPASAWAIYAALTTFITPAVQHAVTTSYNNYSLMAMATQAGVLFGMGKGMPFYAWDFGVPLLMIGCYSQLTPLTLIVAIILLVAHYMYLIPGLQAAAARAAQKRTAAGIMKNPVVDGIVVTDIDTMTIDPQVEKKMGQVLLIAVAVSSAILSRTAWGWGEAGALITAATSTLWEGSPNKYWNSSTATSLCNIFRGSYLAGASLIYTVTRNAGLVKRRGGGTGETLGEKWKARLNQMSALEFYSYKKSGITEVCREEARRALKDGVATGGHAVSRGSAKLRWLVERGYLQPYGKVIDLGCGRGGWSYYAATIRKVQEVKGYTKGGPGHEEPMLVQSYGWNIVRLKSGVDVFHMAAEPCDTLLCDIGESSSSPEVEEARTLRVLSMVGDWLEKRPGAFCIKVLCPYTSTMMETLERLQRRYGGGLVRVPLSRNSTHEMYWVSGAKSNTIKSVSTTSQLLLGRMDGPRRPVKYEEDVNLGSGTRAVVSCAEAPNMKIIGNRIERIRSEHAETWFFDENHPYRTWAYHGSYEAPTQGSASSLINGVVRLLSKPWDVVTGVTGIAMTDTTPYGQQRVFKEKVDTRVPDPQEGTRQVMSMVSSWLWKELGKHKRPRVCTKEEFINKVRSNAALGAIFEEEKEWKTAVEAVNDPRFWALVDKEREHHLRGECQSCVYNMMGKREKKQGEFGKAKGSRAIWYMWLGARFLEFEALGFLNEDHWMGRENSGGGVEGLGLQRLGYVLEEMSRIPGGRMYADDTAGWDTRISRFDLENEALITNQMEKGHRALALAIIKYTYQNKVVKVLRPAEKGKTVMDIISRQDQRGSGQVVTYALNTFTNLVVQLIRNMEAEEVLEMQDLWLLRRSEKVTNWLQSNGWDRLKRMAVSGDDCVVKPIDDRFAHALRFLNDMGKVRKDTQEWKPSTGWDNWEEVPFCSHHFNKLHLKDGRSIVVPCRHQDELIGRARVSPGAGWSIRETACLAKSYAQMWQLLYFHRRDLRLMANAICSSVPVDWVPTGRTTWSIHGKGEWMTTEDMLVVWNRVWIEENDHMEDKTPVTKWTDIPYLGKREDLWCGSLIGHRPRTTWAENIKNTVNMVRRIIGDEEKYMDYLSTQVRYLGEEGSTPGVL
topA: DNA topoisomerase 1 (topA, Escherichia coli, UniProt P06612)
UniProt P06612, sequence (whole entry, looked up): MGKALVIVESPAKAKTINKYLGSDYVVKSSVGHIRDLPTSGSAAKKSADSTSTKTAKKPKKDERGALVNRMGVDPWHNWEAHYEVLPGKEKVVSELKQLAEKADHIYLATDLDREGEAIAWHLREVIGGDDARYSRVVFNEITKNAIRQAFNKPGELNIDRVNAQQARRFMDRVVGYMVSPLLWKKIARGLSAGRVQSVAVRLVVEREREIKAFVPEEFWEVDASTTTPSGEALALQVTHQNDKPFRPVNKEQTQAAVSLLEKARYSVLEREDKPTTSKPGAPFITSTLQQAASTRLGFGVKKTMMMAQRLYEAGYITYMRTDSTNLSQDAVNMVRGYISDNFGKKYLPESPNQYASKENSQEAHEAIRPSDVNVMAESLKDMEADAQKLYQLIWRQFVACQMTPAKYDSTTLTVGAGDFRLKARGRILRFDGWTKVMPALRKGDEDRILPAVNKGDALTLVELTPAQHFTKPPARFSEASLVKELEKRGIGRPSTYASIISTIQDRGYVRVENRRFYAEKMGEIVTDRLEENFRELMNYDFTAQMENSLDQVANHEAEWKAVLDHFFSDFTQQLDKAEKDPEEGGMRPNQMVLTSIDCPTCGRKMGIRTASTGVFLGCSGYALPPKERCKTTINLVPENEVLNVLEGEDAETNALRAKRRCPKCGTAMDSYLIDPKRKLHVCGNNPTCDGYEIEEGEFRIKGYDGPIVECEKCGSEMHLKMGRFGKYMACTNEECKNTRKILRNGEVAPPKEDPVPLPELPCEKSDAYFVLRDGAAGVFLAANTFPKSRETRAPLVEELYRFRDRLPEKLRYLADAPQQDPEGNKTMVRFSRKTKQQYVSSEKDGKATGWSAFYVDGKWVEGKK
SULT2A1: Sulfotransferase 2A1 (SULT2A1, Homo sapiens, UniProt Q06520)
UniProt Q06520, sequence (whole entry, looked up): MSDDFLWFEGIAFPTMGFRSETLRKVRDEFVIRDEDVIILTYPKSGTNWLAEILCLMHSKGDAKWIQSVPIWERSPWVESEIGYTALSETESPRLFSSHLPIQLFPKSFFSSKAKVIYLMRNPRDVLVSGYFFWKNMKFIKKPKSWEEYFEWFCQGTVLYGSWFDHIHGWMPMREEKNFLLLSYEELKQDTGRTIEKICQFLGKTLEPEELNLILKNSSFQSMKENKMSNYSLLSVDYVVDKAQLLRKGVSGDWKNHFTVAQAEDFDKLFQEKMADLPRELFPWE

| Structure (SMILES) | tested on | test | test system | conditions | quantity | result |
| --- | --- | --- | --- | --- | --- | --- |
| Nc1ncnc2c1c(-c1cnc3[nH]ccc3c1)nn2C1CCCC1 | MAP3K2 (Homo sapiens, UniProt Q9Y2U5) | enzyme activity, inhibitor | – | – | IC50 | 0.007 µM |
| CCOP(=O)(OCC)Oc1nc(Cl)c(Cl)cc1Cl | rat liver carboxylesterase | enzyme activity, inhibitor | rat, postnatal day 1, liver homogenate | added: p-nitrophenyl valerate | IC50 | 2e-05 µM |
| Cc1c(CC(C)(C)C(=O)O)n(Cc2ccc(Cl)cc2)c2ccc(F)cc12 | KCNK18 (Homo sapiens, UniProt Q7Z418) | ion flux, inhibitor | – | – | IC50 | 7.35 µM |
| NCCCOc1ccc(Cl)cc1C(=O)Nc1ccc([N+](=O)[O-])cc1Cl | Genome polyprotein, NS2B-NS3 interaction (dengue virus type 2, UniProt P29990) | NS2B-NS3 interaction, inhibitor, split luciferase complementation | dengue virus 2 | – | IC50 | 4.9 µM |
| NC(=O)CC[C@@H]1NC(=O)[C@H](Cc2ccccc2)NC(=O)[C@H](Cc2ccc(O)cc2)NC(=O)[C@@H](N)CSSC[C@@H](C(=O)N2CCC[C@H]2C(=O)N[C@@H](CCCN=C(N)N)C(=O)NCC(N)=O)NC(=O)[C@H](CC(N)=O)NC1=O | Oxytocin receptor (Macaca mulatta, UniProt P56494) | membrane hyperpolarization, membrane potential dye | CHO expressing macaque oxytocin receptor | – | IC50 | 0.0595 µM |
| O=C(OC(C(F)(F)F)C(F)(F)F)N1CCC(C(O)(c2ccc3c(c2)OCO3)c2ccc3c(c2)OCO3)CC1 | MGLL (Homo sapiens, UniProt Q99685) | enzyme activity, inhibitor | – | – | IC50 | 0.00014 µM |
| CCn1nc(-c2cccs2)nc2c(=O)n(C)c(=O)nc1-2 | Cathepsin B (CTSB, Homo sapiens, UniProt P07858) | enzyme activity, inhibitor, fluorescence | – | – | IC50 | 0.072 µM |
| CN1CCN(C2=Nc3ccccc3Oc3ccc(Cl)cc32)CC1 | Beta-glucuronidase (uidA, Escherichia coli, UniProt P05804) | enzyme activity, inhibitor | – | – | IC50 | > 100 µM |
| COc1cc([N+](=O)[O-])ccc1-c1nc2cc3nc4ccccc4nc3cc2[nH]1 | Genome polyprotein, protease (dengue virus type 2, UniProt P29990) | enzyme activity, inhibitor, fluorescence | – | pH 8.5 | IC50 | 79 µM |
| Cc1oncc1C(=O)Nc1ccc(C(F)(F)F)cc1 | SLCO1B3 (Homo sapiens, UniProt Q9NPD5) | transport, inhibitor | – | 10 (unit not given), pre-incubation, added: cholecystokinin | IC50 | 21.2 ± 2 µM |
| CC[C@H](C)[C@H](NC(=O)[C@H](Cc1ccc(O)cc1)NC(=O)[C@H](CC(C)C)NC(=O)[C@H](C)N)C(=O)N1CCC[C@H]1C(=O)N1CCC[C@H]1C(=O)N[C@@H](Cc1ccc(O)cc1)C(=O)N[C@@H](CCC(=O)O)C(=O)N[C@@H](CC(C)C)C(=O)O | HLA class I histocompatibility antigen, A alpha chain, allele A*02:01 (Homo sapiens, UniProt P04439) | binding, competitive radioligand binding | – | 48 h, 37 °C, added: radiolabelled FLPSDYFPSV 1 nM | IC50 | 0.586 µM |
| CC(C)C[C@H](NC(=O)CN)C(=O)N[C@@H](CC(=O)O)C(=O)N[C@@H](Cc1c[nH]c2ccccc12)C(=O)N[C@@H](Cc1c[nH]c2ccccc12)C(=O)N[C@@H](CO)C(=O)O | Transcriptional regulator ComR (Streptococcus mutans serotype c, UniProt Q8DWI6) | – | Streptococcus mutans | – | IC50 | > 50 µM |
| CN1C(=O)[C@]23SS[C@@]1(C)C(=O)N2[C@H]1Nc2ccccc2[C@@]1([C@@]12c4ccccc4N[C@@H]1N1C(=O)[C@@]4(C)SS[C@]1(C(=O)N4C)[C@H]2O)[C@@H]3O | SETD7 (Homo sapiens, UniProt Q8WTS6) | enzyme activity, inhibitor, radiometric | – | – | IC50 | > 10 µM |
| O=C(O)c1cc(-c2ccccc2Cl)n[nH]1 | ALPL (Homo sapiens, UniProt P05186) | enzyme activity, inhibitor, luminescence | – | added: 1 M DEA, 50 µM CDP-star | IC50 | 95.3 ± 14.1 µM |
| CSCC[C@H](NC(=O)[C@H](CO)NC(=O)[C@H](CO)NC(=O)[C@H](CC(C)C)NC(=O)[C@H](Cc1c[nH]cn1)NC(=O)[C@H](CCCCN)NC(=O)[C@@H](Cc1c[nH]c2ccccc12)NC(=O)[C@H](CC(C)C)NC(=O)[C@H](CC(N)=O)NC(=O)[C@H](Cc1c[nH]cn1)NC(=O)[C@H](CCSC)NC(=O)[C@@H](N)Cc1ccccc1)C(=O)N[C@@H](CCC(=O)O)C(=O)N[C@@H](CCCNC(=N)N)C(=O)N[C@H](C(=O)N[C@@H](CCC(=O)O)C(=O)N[C@@H](Cc1c[nH]c2ccccc12)C(=O)N[C@@H](CC(C)C)C(=O)N[C@@H](CCCNC(=N)N)C(=O)N[C@@H](CCCCN)C(=O)N[C@@H](CCCCN)C(=O)N[C@@H](CC(C)C)C(=O)N[C@@H](CCC(N)=O)C(=O)N[C@@H](CC(=O)O)C(=O)N[C@H](C(=O)N[C@@H](Cc1c[nH]cn1)C(=O)N[C@@H](CC(N)=O)C(=O)N[C@@H](Cc1ccccc1)C(N)=O)C(C)C)C(C)C | PTH1R (Homo sapiens, UniProt Q03431) | cAMP generation, antagonist, GloSensor luciferase | SGS-72 | added: human PTH(1-34) 0.3 nM | IC50 | 0.00428 ± 0.00117 µM |
| [I-].[Na+] | Beta-lactamase OXA-10 (Pseudomonas aeruginosa, UniProt P14489) | enzyme activity, inhibitor | – | pH 7.2, with preincubation | IC50 | 4000 µM |
| CCCCCC[C@H]1C(=O)O[C@H](C)[C@H](NC(=O)c2cccc(NC=O)c2O)C(=O)O[C@@H](C)[C@@H]1OC(=O)CC(C)C | Mt-cyb (Rattus norvegicus, UniProt P00159) | mitochondrial respiration, inhibitor | saponin-permeabilized cortical neurons, old rats | added: glutamate, malate, succinate | IC50 | < 0.1 µM |

| Structure (SMILES) | tested on | test | test system | conditions | quantity | result |
| --- | --- | --- | --- | --- | --- | --- |
| CN[C@@](C)(C[18F])C(=O)O | – | – | SCID mouse DU-145 xenograft, blood | 15 min, post injection | tissue uptake | 2.2 ± 0.4 %ID/g |
| CC[C@H](C)[C@H](NC(=O)[C@H](Cc1ccc(O)cc1)NC(=O)[C@H](CC(=O)O)NC(=O)[C@@H](NC(=O)[C@H](CC(C)C)NC(=O)[C@@H](N)Cc1ccccc1)[C@@H](C)O)C(=O)N1CCC[C@H]1C(=O)NCC(=O)N[C@@H](C)C(=O)O | HLA class I histocompatibility antigen, A alpha chain, allele A*02:03 (Homo sapiens, UniProt P04439) | peptide binding, radiolabelled peptide competition | – | added: radiolabelled standard peptide | IC50 | 0.0078 µM |
| CCCCCCCCCC(=O)N[C@@H](C)C(=O)N[C@@H](Cc1ccc(OC)cc1)C(=O)N[C@@H](CC(C)C)C(=O)C(=O)Nc1ccccc1 | Proteasome component C5/PSMB5 chymotrypsin-like site | enzyme activity in cells, inhibitor | – | – | IC50 | 0.234 µM |
| Fc1cccc(-n2cnc3c(NCc4nc5c(F)c(F)ccc5[nH]4)nc(N4CCOCC4)nc32)c1 | Cyclin-dependent kinase 4, with cyclin D1 (CDK4, Homo sapiens, UniProt P11802) | enzyme activity, inhibitor | – | – | IC50 | 0.576 µM |
| CC(C)C[C@H](NC(=O)OCc1ccccc1)C(=O)N[C@@H](CC(C)C)C(=O)N[C@@H](CC(C)C)C(=O)C(=O)Nc1ccccc1 | Proteasome component C5/PSMB5 chymotrypsin-like site | enzyme activity in cells, inhibitor | – | – | IC50 | 0.0345 µM |
| Cc1cc(-c2cc(Br)c(-c3cc(C)c(O)c(C)c3)[se]2)cc(C)c1O | Estrogen receptor (ESR1, Homo sapiens, UniProt P03372) | antagonist | HEK293T | added: estradiol 10 nM | IC50 | 1.58 µM |
| CC(=O)c1ccc(-c2nc(OCC3CCNCC3)cnc2-c2ccc(CN)cc2)cc1 | Genome polyprotein NS2B-NS3 protease | inhibitor | Zika virus | – | IC50 | 3.2 µM and 3.16 µM |
| CCCCCc1cc(O)cc(OC(=O)c2c(O)cc(O)cc2CCCCC)c1 | topA | DNA relaxation, inhibitor | – | 30 min, 37 °C, added: supercoiled pBAD/Thio plasmid | IC50 | 500 µM |
| Oc1ccc(Cl)cc1-c1ccc(Cl)c(Cl)c1 | SULT2A1 | enzyme activity, inhibitor | – | – | IC50 | 15.5 µM |
| O=C1OC2(c3cc(Cl)c(O)cc3Oc3cc(O)c(Cl)cc32)c2ccccc21 | Dual specificity protein phosphatase 5 (Homo sapiens, UniProt Q16690) | phosphatase activity | – | 0 min, 1 mM DTT, initial velocity, added: pNPP | IC50 | 238 ± 6.4 µM |
| O=[N+]([O-])c1ccc(OP(=O)(O)Oc2ccc([N+](=O)[O-])cc2)cc1 | CES1 (Homo sapiens, UniProt P23141) | enzyme activity, inhibitor | human liver microsomes | pH 6.5, 37 °C, added: D-luciferin methyl ester | IC50 | 0.24 ± 0.02 µM |
| O=C(O)c1cn2c3c(c(F)c(F)cc3c1=O)Oc1cc(C(F)(F)F)ccc1-2 | topA | – | – | – | IC50 | > 125 µM |
| c1cncc(OC[C@@H]2CCN2)c1 | mouse brain nicotinic receptors | – | brain | low-affinity site, averaged regions | IC50 | 0.14 µM |
| CNCc1ccc(-c2nc(OCC3CCNCC3)cnc2-c2ccc(-c3ccoc3)cc2)cc1 | Genome polyprotein NS2B-NS3 protease | inhibitor | Zika virus | – | IC50 | 3.3 µM |
| Oc1c(Cl)cc(-c2ccccc2)cc1Cl | Sult1a1 (Rattus norvegicus, UniProt P17988) | enzyme activity, inhibitor | – | – | IC50 | 0.27 µM |
| O=S(=O)(O)Oc1cc(Cl)c(-c2cc(Cl)ccc2Cl)cc1Cl | SULT2A1 | DHEA sulfation, inhibitor | – | pH 7.4, 37 °C, added: DHEA 1.0 µM | IC50 | 30 ± 11 µM |
| CCCC(=O)N[C@@H](C)C(=O)N[C@@H](C(=O)N[C@@H]1C(=O)N[C@@H](CC(C)C)C(=O)N[C@H]2CC[C@@H](O)N(C2=O)[C@@H](Cc2ccccc2)C(=O)N(C)[C@@H](Cc2ccc(O)cc2)C(=O)N[C@@H](C(C)C)C(=O)O[C@H]1C)[C@@H](C)OC(=O)[C@H](C)NC(=O)CCC | CELA1 (Sus scrofa, UniProt P00772) | enzyme activity, inhibitor | – | with preincubation | IC50 | 0.28 µM |

Excerpt of the above:
| Structure (SMILES) | tested on | test | test system | conditions | quantity | result |
| --- | --- | --- | --- | --- | --- | --- |
| c1cncc(OC[C@@H]2CCN2)c1 | mouse brain nicotinic receptors | – | brain | low-affinity site, averaged regions | IC50 | 0.14 µM |
| CNCc1ccc(-c2nc(OCC3CCNCC3)cnc2-c2ccc(-c3ccoc3)cc2)cc1 | Genome polyprotein NS2B-NS3 protease | inhibitor | Zika virus | – | IC50 | 3.3 µM |
| Nc1ncnc2c1c(-c1cnc3[nH]ccc3c1)nn2C1CCCC1 | MAP3K2 (Homo sapiens, UniProt Q9Y2U5) | enzyme activity, inhibitor | – | – | IC50 | 0.007 µM |
| Oc1ccc(Cl)cc1-c1ccc(Cl)c(Cl)c1 | SULT2A1 | enzyme activity, inhibitor | – | – | IC50 | 15.5 µM |
